Assay results of several laboratories.
Parts stem from different laboratories: compare values within a part only.

Block 1
Target: Interferon regulatory factor 5, full length, phosphomimetic (IRF5, Homo sapiens, UniProt Q13568-2, residues 1-514, K96S/S451D/S453D/S456D/S462D)
Technique: protein-binding microarray
Form: double-stranded DNA, one strand shown
Sample: in vitro
Concentration: 250 nM
Setting: 60-bp whole probe
Together with: salmon DNA 0.4 mg/ml
Relative to: random background probes
Direction: higher = stronger binding
All sequences stand within: GCCTAGCAC … GTCTTGATTCGCTTGACGCTGCTG
`TTTCAGCTGTTTTTCTCACCGTGCTAG` has a log fluorescence of 6.85 z-score.
For `TTAGGTAACGACTTTCGGTTAGTGCTA`, the log fluorescence was 10 z-score.
`ATAGGTATCCTTATCCTTTAGTGCTAG` gave a log fluorescence of 0.325 z-score.
For `TTAGGTATCGGTTCCGGTTAGTGCTAG`, the log fluorescence was 7.77 z-score.
`AGGACTCTGGAGGTTGAGAAAGTGCTA` gave a log fluorescence of -0.719 z-score.
`TTAGATTTCGGGTTTTGATTAGTGCTA` has a log fluorescence of 4.67 z-score.
With `GACGGACCGGGTTTCGGGACGTGCTAG` the log fluorescence was 1.62 z-score.

Block 2
Target: Histone acetyltransferase KAT6A, both winged helices, GST fusion (KAT6A, Homo sapiens, UniProt Q92794, residues 1-181)
Technique: protein binding microarray
Form: double-stranded DNA, one strand shown
Sample: in vitro
Concentration: not given
Setting: 8-mer, flanks averaged, mean of 2 arrays, mostly near background
Relative to: not given
Direction: higher = stronger binding
Construct (chain): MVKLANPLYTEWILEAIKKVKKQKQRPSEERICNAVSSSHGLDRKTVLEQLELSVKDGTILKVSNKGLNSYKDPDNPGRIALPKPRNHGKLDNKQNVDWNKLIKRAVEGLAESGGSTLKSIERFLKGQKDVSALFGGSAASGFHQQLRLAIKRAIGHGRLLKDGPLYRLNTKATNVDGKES
`ACAGCGGG` has an E-score of 0.145.
The E-score of `ACCCTGTA` is reported as -0.123.
With `ATATTAAC` the E-score was 0.0773.
`ATCTGTAG` gave an E-score of -0.112.
With `GTTCTCAA` the E-score was -0.0821.
The E-score of `CTGGCCAA` is reported as -0.0907.
With `GCCCGCGC` the E-score was 0.371.

Block 3
Target: Transcription factor Sp1 (SP1, Homo sapiens, UniProt P08047, residues 1-785, full length assumed)
Sequence of UniProt P08047 (whole entry, looked up): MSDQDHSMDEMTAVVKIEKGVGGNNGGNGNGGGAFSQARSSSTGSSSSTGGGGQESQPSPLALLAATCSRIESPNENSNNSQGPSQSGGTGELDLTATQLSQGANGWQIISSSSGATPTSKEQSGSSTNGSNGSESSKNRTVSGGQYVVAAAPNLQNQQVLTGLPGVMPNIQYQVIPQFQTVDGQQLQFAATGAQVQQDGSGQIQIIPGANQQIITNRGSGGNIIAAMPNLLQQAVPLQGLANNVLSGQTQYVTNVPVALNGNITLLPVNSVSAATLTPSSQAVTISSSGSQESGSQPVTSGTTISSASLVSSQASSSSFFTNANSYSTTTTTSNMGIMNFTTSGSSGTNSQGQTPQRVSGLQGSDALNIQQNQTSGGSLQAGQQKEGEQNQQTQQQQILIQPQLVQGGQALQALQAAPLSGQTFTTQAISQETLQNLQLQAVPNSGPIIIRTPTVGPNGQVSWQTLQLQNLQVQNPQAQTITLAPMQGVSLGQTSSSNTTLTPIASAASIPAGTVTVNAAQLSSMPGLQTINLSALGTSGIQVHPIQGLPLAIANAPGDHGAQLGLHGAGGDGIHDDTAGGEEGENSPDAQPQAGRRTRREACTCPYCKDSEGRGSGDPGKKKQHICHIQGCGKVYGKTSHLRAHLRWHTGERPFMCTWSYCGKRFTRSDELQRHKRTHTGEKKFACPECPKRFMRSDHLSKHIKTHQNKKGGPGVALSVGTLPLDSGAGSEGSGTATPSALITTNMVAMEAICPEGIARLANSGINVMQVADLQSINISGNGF
Technique: protein-binding microarray
Form: double-stranded DNA, one strand shown
Sample: in vitro
Concentration: not given
Setting: k-mer, scored over probes, only values ≥0.25
Direction: higher = stronger binding
`AGGTAAAG` gave an E-score of 0.282.
The E-score of `CCTATGCA` is reported as 0.29.
With `GGGTTGCA` the E-score was 0.263.
`AGGGGGTG` gave an E-score of 0.399.
With `ACCGCCCC` the E-score was 0.484.

Mixed results
`PhoQ, residues 284 288 289 292 302 303 GNNTDL` has a fold induction of 0.544 (PhoP, residues 12 14 15 18 19 AWHSL (Escherichia coli, UniProt P23836); Sort-seq, measured: YFP reporter; E. coli; PhoQ-PhoP variant library, together with: 10 µM Mg2+; relative to: high Mg2+ state, higher = stronger signaling).
